Assay results gathered from unrelated publications.
Every numbered part comes from another study and shows a few of its results, in no order. Changes are numbered by the printed parent chain.
Sequence of UniProt Q8LAL2 (whole entry, looked up): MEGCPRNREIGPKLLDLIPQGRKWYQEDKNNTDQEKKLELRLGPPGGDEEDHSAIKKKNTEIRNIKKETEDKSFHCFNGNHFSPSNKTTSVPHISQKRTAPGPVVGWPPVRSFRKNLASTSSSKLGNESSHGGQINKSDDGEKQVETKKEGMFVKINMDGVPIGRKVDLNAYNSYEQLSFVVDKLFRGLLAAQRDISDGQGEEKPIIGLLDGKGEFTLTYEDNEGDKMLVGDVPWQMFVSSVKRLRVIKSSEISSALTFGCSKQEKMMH

Study 1 — target: CCNA1, cyclin fold, Cln2 fusion (human); method: yeast growth competition, sequencing; medium: yeast; setting: weak parent motif; baseline: not given; direction: higher = stronger binding
Starting sequence: CDKN1B docking peptide (human); PSACRNLFGPVDH; partner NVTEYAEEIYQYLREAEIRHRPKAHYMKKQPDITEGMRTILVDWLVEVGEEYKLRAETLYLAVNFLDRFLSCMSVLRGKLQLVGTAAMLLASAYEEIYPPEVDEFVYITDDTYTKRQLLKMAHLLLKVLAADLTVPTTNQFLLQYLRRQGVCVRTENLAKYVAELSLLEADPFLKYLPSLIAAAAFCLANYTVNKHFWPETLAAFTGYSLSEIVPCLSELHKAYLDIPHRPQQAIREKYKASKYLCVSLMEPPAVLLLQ
Change	normalised enrichment score
PIACRNLFGPVDH [S2I]	0.424
PFACRNLFGPVDH [S2F]	0.226
PSACRFLFGPVDH [N6F]	0.0493
PSACRNDFGPVDH [L7D]	0.222
PSAERNLFGPVDH [C4E]	-0.00269
PSACRNLFGPVSH [D12S]	0.174
PSACRNLFGPVDD [H13D]	0.315
PCACRNLFGPVDH [S2C]	0.22
PSACRNLFGPVIH [D12I]	0.375
PSACRNLAGPVDH [F8A]	0.356
PSACRNLFDPVDH [G9D]	0.375
PSACRNLTGPVDH [F8T]	0.331
PSACRNLFGPVAH [D12A]	0.505
PSACRNLWGPVDH [F8W]	0.326
PSACRNLFGPVDY [H13Y]	0.224
DSACRNLFGPVDH [P1D]	-0.103
MSACRNLFGPVDH [P1M]	0.107
PSARRNLFGPVDH [C4R]	0.673

Study 2 — method: DHFR PCA, deep sequencing; medium: yeast; together with: (+)-ABA 0.39 µM; baseline: wild-type fitted maximum; direction: higher = stronger binding
Target: ABI1, truncated, D143A, DHFR fusion (Arabidopsis thaliana)
Setting: methotrexate growth selection, single substitutions
Starting sequence: PYL1, truncated, DHFR fusion (Arabidopsis thaliana); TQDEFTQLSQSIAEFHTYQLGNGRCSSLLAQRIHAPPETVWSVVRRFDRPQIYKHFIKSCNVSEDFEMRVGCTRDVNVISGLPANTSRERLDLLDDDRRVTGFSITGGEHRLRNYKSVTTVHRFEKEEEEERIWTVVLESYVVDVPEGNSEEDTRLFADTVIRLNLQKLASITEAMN
Change	relative binding score
S150C	19.9%
L20N	44.4%
H16N	-3.81%
S104M	-10.4%
R99S	2%
H110T	42.8%
L93F	16%
R45T	0.155%
H34A	52.3%
V142A	33.6%
H122A	1.1%
L93D	0.656%
I33N	-6.33%
N149H	34.8%
M176N	10.5%
T120G	-6.43%
F56P	-3.8%
V145H	-32.4%
S42A	49.9%
D96Y	-11.9%
E139P	12.5%
A30F	40.4%
P146A	27%
T1M	47.5%
T154C	-1.97%

Study 3 — target: CDC34 UBC core domain (UniProt P49427); method: yeast two-hybrid; medium: yeast; setting: mostly zero background; baseline: not given; direction: higher = stronger interaction
B1: RNF175 RING domain (UniProt Q8N4F7); chain LPTRSLSDNICAVCGQKIIVELDEEGLIENTYQLSCNHVFHEFCIRGWCIVGKKQTCPYCKEKVDLKRMIS
B2: TRIM55 RING domain (UniProt Q9BYV6); chain TMDNLEKQLICPICLEMFTKPVVILPCQHNLCRKCASDIFQASNPYLPTRGGTTMASGGRFRCPSCRHEVVLDRHG
B3: TRIM15 RING domain (UniProt Q9C019); chain SLKVVHELPACTLCAGPLEDAVTIPCGHTFCRLCLPALSQMGAQSSGKILLCPLCQEEEQAETPMA
B4: NSMCE1 RING domain (UniProt Q8WV22); chain RETYPDAVKICNICHSLLIQGQSCETCGIRMHLPCVAKYFQSNAEPRCPHCNDYWPHEIPKV
B5: RFPL2 RING domain (UniProt O75678); chain MAALFQEASSCPVCSDYLEKPMSLECGCAVCLKCINSLQKEPHGEDLLCCCSSMVSRKNKIRR
B6: PEX2 RING domain (UniProt P28328); chain DNTLATSGKECALCGEWPTMPHTIGCEHIFCYFCAKSSFLFDVYFTCPKCGTEVHSLQPLK
B7: MSL2 RING domain (UniProt Q9HCI7); chain LLPYFRQSLSCCVCGHLLQDPIAPTNSTCQHYVCKTCKGKKMMMKPSCSWCKDYEQFEENKQ
B8: UBE4A RING domain (UniProt Q14139); chain LQQQEEETYADACDEFLDPIMSTLMCDPVVLPSSRVTVDRSTIARHLLSDQTDPFNRSPLTMDQIRPNTELKEKIQRWLAERKQQKEQLE
B9: PHF7 RING domain (UniProt Q9BWX1); chain IQHGHVGEESCILCCEDLSQQSVENIQSPCCSQAIYHRKCIQKYAHTSAKHFFKCPQCNNRKEFPQEML
B10: RNF150 RING domain (UniProt Q9ULK6); chain DKETESDFDNCAVCIEGYKPNDVVRILPCRHLFHKSCVDPWLLDHRTCPMCKMNILKALGIP
B11: TRIM10 RING domain (UniProt Q9UDY6); chain SVTSLADEVNCPICQGTLREPVTIDCGHNFCRACLTRYCEIPGPDLEESPTCPLCKEPFRPGSFRP
B12: RNF32 RING domain (UniProt Q9H0A6); chain SLLQGDSVQPCPICKEEFELRPQVLLSCSHVFHKACLQAFEKFTNKKTCPLCRKNQYQTRVIH
Construct (chain): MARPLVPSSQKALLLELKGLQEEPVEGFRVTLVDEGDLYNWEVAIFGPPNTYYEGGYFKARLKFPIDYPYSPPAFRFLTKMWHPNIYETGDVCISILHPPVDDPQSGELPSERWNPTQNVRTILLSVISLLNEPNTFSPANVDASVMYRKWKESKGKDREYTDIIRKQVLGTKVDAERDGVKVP
Molecule	lacZ reporter activity
B1 (RNF175 RING domain)	0
B2 (TRIM55 RING domain)	0
KIKDLNEHIVCCLCAGYFVDATTITECLHTFCKSCIVKYLQTSKYCPMCNIKIHETQPLL (PCGF1 RING domain (UniProt Q9BSM1))	0
B3 (TRIM15 RING domain)	0
LKQVSIRENCCSLCCDEVADTQLKPCGHSDLCMDCALQLETCPLCRKEIVSRIRQI (RSPRY1 RING domain (UniProt Q96DX4))	0
B4 (NSMCE1 RING domain)	0
MANWVFCNRCFQPPHRTSCFSLTNCGHVYCDACLGKGKKNECLICKAPCRTVLLSK (RNF212 RING domain (UniProt Q495C1))	0
B5 (RFPL2 RING domain)	0
B6 (PEX2 RING domain)	0
QLQDEEDDSLCRICMDAVIDCVLLECGHMVTCTKCGKRMSECPICRQYVVRAVHVF (RNF34 RING domain (UniProt Q969K3))	0
B7 (MSL2 RING domain)	0
B8 (UBE4A RING domain)	0
B9 (PHF7 RING domain)	0
B10 (RNF150 RING domain)	0
FLKKLEQSFMCVCCQELVYQPVTTECFHNVCKDCLQRSFKAQVFSCPACRHDLGQNYIMI (UHRF2 RING domain (UniProt Q96PU4))	0
B11 (TRIM10 RING domain)	0
B12 (RNF32 RING domain)	0
SYEDKSNDFVCPICFDMIEEAYMTKCGHSFCYKCIHQSLEDNNRCPKCNYVVDNIDHLY (COP1 RING domain (UniProt Q8NHY2))	0

Study 4 — method: RNA Bind-n-Seq; molecule type: RNA; medium: in vitro; tested at: not given; baseline: input RNA pool; direction: higher = stronger binding
Target: RING finger protein unkempt homolog, zinc fingers 1-6, GST-SBP tag (UNK, Homo sapiens, UniProt Q9C0B0, residues 30-357)
Sequence of UniProt Q9C0B0 (30-357, looked up): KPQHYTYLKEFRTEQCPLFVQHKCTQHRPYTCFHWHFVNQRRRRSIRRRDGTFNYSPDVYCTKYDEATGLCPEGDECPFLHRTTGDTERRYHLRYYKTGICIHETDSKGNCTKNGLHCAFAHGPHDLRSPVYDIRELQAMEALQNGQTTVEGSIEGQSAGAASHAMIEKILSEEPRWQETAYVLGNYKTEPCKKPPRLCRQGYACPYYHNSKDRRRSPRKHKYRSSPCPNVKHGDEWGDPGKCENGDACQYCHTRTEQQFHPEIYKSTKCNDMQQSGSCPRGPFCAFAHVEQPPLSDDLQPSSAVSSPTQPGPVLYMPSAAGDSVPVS
Setting: RNA with constant flanks, human-mouse chimeric sites, ends assumed
Shared flanks, not repeated: GGGAGUUCUACAGUCCGACGAUC … CAACAGAGGAUUGAGCAUCA
Sequence	bound/input enrichment [ratio]
ACAGUUAUAUUGUUGAGUUUCAUUUUCAUAUAUUCUUGUAGUGUCUGCUUGCCUGUGACUUCUGGUAAAAUAAGACUAGCCUUUGAAAAUAUUUUAGCAUGGUAUUUAACAUUUUCUAAA	10.6
CUUUUUAAGAAGAUAUGUGAUGGGAUCUUUUAUACCCCUCAGUACUUAAAUCCUUCUGUGAUUAGCCUUUUGAAACAUAUGCUGCAGGUGGAUCCCAUGAAGAGGGCCGCAAUAAAAGAU	0.464
ACUCUUGACUCUUUCCAUCCUCUUCCUUUCCCUCUUGAUCUUCAAGGCCAUGAAUCCCAAAAUAACAAUCUAUCUUACUAGCACCCAAACAGAGGUGGAAUAAAUCCACCCCAGUGUCUC	1.16
GUCAACAGCUGCCUCAAUCCCAUUCUCUACGCCUUCCUGGAUGAGAACUUCAAGGCCUGCUUUAGAAAGUUCUGCUGUGCAUCUGCCCUGCGCCGGGACGUGCAGGUGUCUGACCGCGUG	0.526
AGAAUCUUGGGACUGUUUUACUUAAUUGGUCAUUGGUAGCUUAACAAACAUGGAGAUAAGAUUAGAAAUCUUGACAUCAACAGGUAUUAAGCAGAAAAAACCAUGGCCACGUGUCUCCUG	0.103
GUGUCCUGCUUUCAACUUAAAUCACUGAGGCAUCUCUACUAUUCUGUGAGCAUCAGGACUGUAGCGCUUGCCACCACCAUGAGAGUUCAGAAGCAGCCUUUCUGUGGAGGGUGGGAAUGA	0.162
UCUUUAAAAAAAAAAUUACCUUUUCUGACAGUGCUUUCCCUCCCAUAGAUCCACGUUCACACUAGAAGAGCAAAGGCUCCGCAAACAGCUCAAACAUCUGAUGAAGAAAGAUUUCUGAGA	1.76
GUUGCCAGGUUCCGGUGCCGUUGGGCUCGGUUCUCUCCUGAGCUACGUGUCUCUACGCUCUCAAUCCGCCAUCCAACAAACAUGGAUCAGGUAAUGCUGCAGUUUGUGCCCAGCCGGCAG	0.136
UAAAUUAGCCAGCACCAUUUCUGUUUCUCCCUGGGCUGCGGAAAGCCAGAAGAUUUUAUCUAGCUUAUACAAGGCUGCUGGUGUUCCCUCUUUUUUUCCACGAGGGUUUUUUUUCCAGCA	1.54
GAUAAGAAAAGCUUGUUGGAGACCCGCUUGCAUGUCACUGGCAGAGACCUGAGGUGUCAAAUAGCUGAAACUUUCGGAUUUCAAGAAAAUUACAUCAAGAUCGUAAUAAAUAAGAAACAG	0.282
CUGUUUUACAGCCACACAAUUCUUGGCAUGUAUUAAGGAAAAAAAAAAUCCCUGUUGAAGUAGUUUUUCCACCUAUCAGCACUGAGUAAAUGCCAUAACUCCGCGGAAAUGGUCUAAAUA	0.228

Mixed results — method: two-hybrid; baseline: out of 4 tests; direction: higher = firmer interaction
Partner: ARF13 (Arabidopsis thaliana, UniProt Q9FX25)
B13: ARF1 538-665 (Arabidopsis thaliana, UniProt Q8L7G0); chain SRQIRSCTKVHMQGSAVGRAIDLTRSECYEDLFKKLEEMFDIKGELLESTKKWQVVYTDDEDDMMMVGDDPWNEFCGMVRKIFIYTPEEVKKLSPKNKLAVNARMQLKADAEENGNTEGRSSSMAGSR
B14: ARF8 699-811 (Arabidopsis thaliana, UniProt Q9FGV1); chain NSSNQTKNFVKVYKSGSVGRSLDISRFSSYHELREELGKMFAIEGLLEDPLRSGWQLVFVDKENDILLLGDDPWESFVNNVWYIKILSPEDVHQMGDHGEGSGGLFPQNPTHL
B15: ARF7 1030-1164 (Arabidopsis thaliana, UniProt P93022); chain PAQTQRMRTYTKVQKRGSVGRSIDVNRYRGYDELRHDLARMFGIEGQLEDPQTSDWKLVYVDHENDILLVGDDPWEEFVNCVQSIKILSSAEVQQMSLDGNFAGVPVTNQACSGGDSGNAWRGHYDDNSATSFNR
Sequence (chain, as in one of the studies): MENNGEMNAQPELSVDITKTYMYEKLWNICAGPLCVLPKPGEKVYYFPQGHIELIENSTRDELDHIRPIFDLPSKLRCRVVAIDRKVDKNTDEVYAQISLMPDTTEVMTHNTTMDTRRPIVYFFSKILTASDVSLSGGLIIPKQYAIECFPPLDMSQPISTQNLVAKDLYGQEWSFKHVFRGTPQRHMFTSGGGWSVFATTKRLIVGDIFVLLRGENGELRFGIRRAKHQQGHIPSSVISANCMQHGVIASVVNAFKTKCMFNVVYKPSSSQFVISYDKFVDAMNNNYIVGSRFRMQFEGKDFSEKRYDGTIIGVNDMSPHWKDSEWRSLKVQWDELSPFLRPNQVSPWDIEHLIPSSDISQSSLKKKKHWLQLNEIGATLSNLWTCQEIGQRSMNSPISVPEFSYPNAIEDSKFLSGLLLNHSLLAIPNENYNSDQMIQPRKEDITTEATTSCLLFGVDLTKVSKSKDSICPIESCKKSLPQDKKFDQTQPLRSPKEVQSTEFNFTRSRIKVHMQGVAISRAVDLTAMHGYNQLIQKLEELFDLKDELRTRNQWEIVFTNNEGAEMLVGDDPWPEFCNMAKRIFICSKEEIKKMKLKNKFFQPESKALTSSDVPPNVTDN
Substance	positive tests
B13 (ARF1 538-665)	0
IAA26 (Arabidopsis thaliana, UniProt Q8LAL2)	0
B14 (ARF8 699-811)	0
B15 (ARF7 1030-1164)	0

A few entries again (study 2):
Change	relative binding score
V145H	-32.4%
S42A	49.9%
D96Y	-11.9%
E139P	12.5%
A30F	40.4%
P146A	27%
T1M	47.5%
T154C	-1.97%
